Measured values gathered from unrelated publications.
Lines come from different studies, so protocols differ. Values joined by “and” are separate records of one study, mostly repeats; a detail may differ. Numbers after ± are the reported error.

SMILES | tested on | assay | test system | setting | how to read | quantity | result
C[C@H]1C[C@H]2CSC(N)=N[C@@]2(c2nc(NC(=O)c3ccc(OC(F)F)cn3)cs2)CO1 | – | – | healthy adults, fed, plasma | oral, 200 mg single dose, 48 h | reference: baseline, placebo-adjusted | plasma Aβ1-40 change | -84.3%
Oc1cc(O)c2cc(O)c(-c3cc(O)c(O)c(O)c3)[o+]c2c1 | OCI-Ly1 | – | – | 0.1 µM, 120 h | – | viability | 196%
CN(C)C(=O)Oc1cccc([N+](C)(C)C)c1 | – | twitch force recovery | rats with neuromuscular block | iv, with: cisatracurium infusion | – | ED70 | 0.015 mg/kg
Cc1noc(C)c1-c1cc(C(O)(c2ccccn2)c2ccccn2)c2nc(C3CC3)[nH]c2c1 | – | item: CCR2 expression | human, peripheral blood | 2 mg, day 1, 1604 study | – | maximum inhibition | 14%
CN[C@@H](C)C(=O)N[C@H]1CN(S(=O)(=O)c2cccc(S(=O)(=O)N3CC[C@H]4CC[C@@H](C(=O)NC(c5ccccc5)c5ccccc5)N4C(=O)[C@@H](NC(=O)[C@H](C)NC)C3)c2)CC[C@H]2CC[C@@H](C(=O)NC(c3ccccc3)c3ccccc3)N2C1=O | – | – | advanced pancreatic cancer patients | dose not given, monotherapy after AG discontinuation | – | tumour control duration | 1 years
N#Cc1ccc2c(c1)[C@H]1CCCN(C(=O)c3ccc4[nH]cnc4c3)[C@H]1C2 | – | item: Triglycerides | human | 240 mg once daily, day 28, adjusted mean, with: metformin | reference: placebo | change from baseline | -32.5 mg/dL
[Cl-].[Cl-].[Pt+2].[Ru+2].c1ccc(-c2nccnc2-c2ccccn2)nc1.c1cnc2c(c1)ccc1cccnc12.c1cnc2c(c1)ccc1cccnc12 | – | – | – | concentration not given, first substitution step, with: guanosine 5'-monophosphate | – | activation enthalpy | 10.5 ± 0.717 kcal/mol
COC(=O)c1ccc2c(c1)NC(=O)/C2=C(\Nc1ccc(N(C)C(=O)CN2CCN(C)CC2)cc1)c1ccccc1 | – | – | rat, bleomycin lung fibrosis | oral, 60 mg/kg daily, day 14 | – | lung hydroxyproline level | no effect
Cc1cc(C(C)(C)C)c(O)c(C(C)(C)C)c1 | – | Cu2+ reduction, CUPRAC | – | 30 µg/mL | – | absorbance | 0.454 ± 0.052
COCCOc1cnc2ccn([C@H](C)c3nnc4c(F)cc(-c5cnn(C)c5)cn34)c(=O)c2c1 | – | – | human | 200 mg twice daily | – | duration of response | 232 days
c1ccc(-c2cc(-c3ccccc3)n(Cn3ccnc3)n2)cc1 | – | – | rat, STZ-nicotinamide diabetic | 75 mg/kg, 72 h, full-thickness excision wound | – | wound size | 18.1 mm
CC(C)(C)S(=O)(=O)NC(=O)c1cc2ccccc2n1Cc1ccc(Br)c2ccccc12 | – | – | mouse, acute hyperuricemia model | dose not given | – | serum uric acid | 458 µM and 404 µM and 440 µM
Cn1cc([C@H]2C[C@H]3CSC(N)=N[C@@]3(c3ccc(F)cc3F)CO2)cn1 | – | item: Aβx-42 | Mus musculus wild-type, brain | subcutaneous, 50 mg/kg, 6 h | – | Aβ42 level | 0.23 ng/g
COc1ccc(S(=O)(=O)NC(=O)c2cc3ccccc3n2Cc2ccc(Br)c3ccccc23)cc1 | – | – | mouse, acute hyperuricemia model | dose not given | – | serum uric acid | 1190 µM
N#Cc1ccn2c(-c3ccncc3)c(-c3ccc(F)cc3)nc2c1 | – | kinase binding, competitor, MIB/MS competition, item: NIK1 | Candida albicans cell lysate | 10 µM | reference: DMSO | log2 fold change | -0.886
Cn1cc(Nc2nccc(-c3ccc4c(c3)CN(C3COC3)CC[C@H]4NC(=O)c3cn(C(C)(C)C)nn3)n2)cn1 | – | item: TREM1 signalling | mouse splenic B cells, mouse | 30 mg/kg, IgD-activated B cells in vivo | reference: vehicle, direction not given | pathway activation z-score | 3.15
CC(C)(C)c1ccc(S(=O)(=O)NC(=O)c2cc3ccccc3n2Cc2ccc(Br)c3ccccc23)cc1 | – | – | mouse, acute hyperuricemia model | dose not given | – | serum uric acid | 1010 µM and 1190 µM and 725 µM
CC(C)N(C[C@H]1O[C@@H](n2cnc3c(N)ncnc32)[C@H](O)[C@@H]1O)[C@H]1C[C@@H](CCc2nc3cc(C(C)(C)C)ccc3[nH]2)C1 | OCI-Ly1 | – | – | 0.5 µM, 120 h | – | viability | 140%
CC1=NN(c2ccccc2)C(=O)C1 | – | – | Rattus norvegicus, MCAO/R model | concentration not given, day 21 post-stroke | direction not given | mNSS score | 5.17
CO[C@H]1CC[C@H](N2C(=O)CNc3ncc(-c4ccc(C(C)(C)O)nc4)nc32)CC1 | – | flow cytometry | stimulated monocytes, human, blood | 30 mg single dose, 5 h, mean | reference: baseline | pAKT change from baseline | -46.3%
C=CCn1c(=O)c2cnc(Nc3ccc(N4CCN(C)CC4)cc3)nc2n1-c1ccc2c(n1)[C@@](O)(CC)CC2 | – | – | human, target lesions | 400 mg 5:2 schedule, cycle 9 | – | target lesion reduction | 71%
O=C(O)CNC(=O)Cc1ccccc1 | – | – | ventricular cardiomyocytes, C57BL/6 mouse | dose not given, 0.744 s | – | sarcomere length | 1.72 µm
C=CC(=O)Nc1cc(Nc2ncc(C(=O)OC(C)C)c(-c3cn(C)c4ccccc34)n2)c(OC)cc1N(C)CCN(C)C | – | BICR, RECIST | EGFR-mutant NSCLC patients, prior platinum chemotherapy | oral, 160 mg once daily | – | objective response rate | 28%
c1ccc(-c2n[nH]cc2-c2ccnc3ccccc23)nc1 | – | kinase binding, competitor, MIB/MS competition, item: HSL1 | Candida albicans cell lysate | 10 µM | reference: DMSO | log2 fold change | 1.56
CSCCNc1nc(SCCC(F)(F)F)nc2c1ncn2[C@@H]1O[C@H](COP(=O)(O)OP(=O)(O)C(Cl)(Cl)P(=O)(O)O)[C@@H](O)[C@H]1O | – | ADP-induced platelet aggregation, light transmittance aggregometry | human patients, platelet-rich plasma | dose not given, 30 min, aggregation above 59%, with: ADP 20 µM | reference: patients | high residual platelet reactivity | 55%
CN[C@@H]1COc2c(S(=O)(=O)NC(=O)Nc3c4c(cc5c3CCC5)CCC4)cnn2C1 | – | item: IL-18 | human participants, whole blood ex vivo | 450 mg single dose, 72 h, IL-18, circulating, adjusted for, with: LPS/ATP | reference: baseline | inhibition | 17%

SMILES | tested on | assay | test system | setting | how to read | quantity | result
N#Cc1ccc2c(-c3ccncc3)c(-c3ccc(F)cc3)nn2c1 | – | kinase binding, competitor, MIB/MS competition, item: MCK1 | Candida albicans cell lysate | 100 nM | reference: DMSO | log2 fold change | -0.54
COc1ccc(S(=O)(=O)NC(=O)c2cc3ccccc3n2Cc2ccc(C3CC3)c3ccccc23)cc1 | – | – | mouse, acute hyperuricaemia model, serum | oral, 2 mg/kg | reference: vehicle model | serum uric acid decrease | 85.3%
CC(C)NCC(O)c1ccc(O)c(O)c1 (stereo not drawn) | – | – | ventricular cardiomyocytes, C57BL/6 mouse | dose not given, 0.712 s | – | sarcomere length | 1.72 µm
OC(CCN1CCCCC1)(c1ccccc1)C1CC2C=CC1C2 (stereo not drawn) | – | resting-state EEG | healthy elderly humans | oral, 2 mg, eyes closed, LS mean | – | EEG Beta2-power Pz-O1 | 1.1 µV²
[Cl-].[Cl-].[Pt+2].[Ru+2].c1ccc(-c2nc3ccccc3nc2-c2ccccn2)nc1.c1cnc2c(c1)ccc1cccnc12.c1cnc2c(c1)ccc1cccnc12 | – | – | – | concentration not given, second substitution step, with: thiourea | – | activation enthalpy | 8.6 ± 0.478 kcal/mol
COc1c(C)c2c(c(O)c1C/C=C(\C)CCC(=O)OCCN1CCOCC1)C(=O)OC2 | – | barrier function (TEER) | human ileal GI microtissue EpiIntestinal-FT | – | – | IC15 | > 100 µM
COc1c(Cl)cccc1Nc1c(-c2ccncc2OC[C@@H]2COCCO2)[nH]c2c1C(=O)NCC2 | – | – | human | oral, 20 mg twice daily, 54 weeks | – | tumour shrinkage | 78%
CC(C)[C@H](C(=O)Nc1ccc(C(=O)NO)cc1)c1ccccc1 | – | volumetric MRI | human, left posterior fossa tumour | dose not given, day 224 | reference: baseline | tumour volume change | -23.8%
NC(=O)c1cnc2[nH]ccc2c1N[C@@H]1[C@@H]2CC3C[C@H]1C[C@@](O)(C3)C2 | – | flow cytometry, item: CD8+ effector T cells | Japanese healthy subjects, peripheral blood | oral, 10 mg twice daily, day 4 | – | change from baseline | 0.03%
OC[C@H]1O[C@@H](c2ccc(Cl)c(Cc3ccc(O[C@H]4CCOC4)cc3)c2)[C@H](O)[C@@H](O)[C@@H]1O | – | – | Japanese type 1 diabetes patients | 10 mg, day 28, 672 h | reference: baseline | systolic blood pressure change | -4.6 mmHg
O=C(NS(=O)(=O)c1ccc(C(F)(F)F)cc1)c1cc2ccccc2n1Cc1ccc(Br)c2ccccc12 | – | – | mouse, acute hyperuricaemia model, serum | oral, 2 mg/kg | reference: vehicle model | serum uric acid decrease | 86.1%
COc1cc2nccc(Oc3ccc(NC(=O)c4cc5c(n(-c6ccccc6)c4=O)CCCC5=O)nc3)c2cc1OC | – | – | MOLM-13 luc/GFP, mouse xenograft AML | in feed, 0.013% in feed | reference: compound over control | hazard ratio | 0.181
C[C@@H](O)CCOC(=O)C[C@@H](C)O | – | item: C18:1-OH/C16:1-DC acylcarnitine | human, plasma | 60 min, log2-transformed values | – | metabolite level | -7.47 ± 0.54 µmol/L
Cc1ccc([C@@H]2O[C@H](CO)[C@@H](O)[C@H](O)[C@H]2O)cc1Cc1ccc(-c2ccc(F)cc2)s1 | – | – | Japanese type 2 diabetes patients | 400 mg, day 17 | reference: day 1 | change in fasting plasma glucose | -60 mg/dL
COc1cc2cc(-c3ccc(CC(=O)Nc4cc(C(C)(C)C(F)(F)F)no4)cn3)cnc2cc1OC | – | RECIST v1.1 | RET-altered advanced solid tumour patients | oral, 150 mg once daily, phase I | – | objective response rate | 25%
CC(C)[C@H](NC(=O)[C@H](Cc1ccc(O)cc1)NC(=O)[C@H](Cc1ccc(O)cc1)NC(=O)[C@@H]1CCCN1C(=O)[C@H](CCC(=O)O)NC(=O)[C@H](CCC(=O)O)NC(=O)[C@H](Cc1c[nH]c2ccccc12)NC(=O)[C@@H]1CCCN1C(=O)[C@@H](NC(=O)[C@H](CCC(N)=O)NC(=O)c1ccc2c(c1)C(=O)OC21c2ccc(O)cc2Oc2cc(O)ccc21)C(C)C)C(=O)N[C@H](C(=O)N[C@@H](CCCCN)C(=O)N[C@@H](CCCCN)C(=O)N[C@@H](CO)C(=O)N[C@@H](CO)C(=O)NCC(=O)NCC(N)=O)C(C)C | – | surgeon confidence in nerve | human head and neck surgery, nerves | 500 mg, very much improved | reference: white light | share of responses | 7.1%
COc1nc(-c2cc(C)c(N[C@@H](C)c3cc(F)cc(F)c3)nn2)ccc1-n1cnc(C)c1 | – | item: Aβ40 | rat Sprague-Dawley male, CSF | oral, 5 mg/kg daily for 9 days, 4 h after dose | reference: vehicle | change in level | 29%
CC(=O)O[C@H]1C(=O)[C@@]2(C)[C@H]([C@H](OC(=O)c3ccccc3)[C@]3(O)C[C@H](OC(=O)[C@H](O)[C@@H](NC(=O)c4ccccc4)c4ccccc4)C(C)=C1C3(C)C)[C@]1(OC(C)=O)CO[C@@H]1C[C@@H]2O | – | – | rat, DMBA-induced mammary tumour, mammary tumour | dose not given, day 0 | – | tumour volume | 0.05 ± 0.01 cm3
COc1nnc2ccc(N3CCC(c4ccc(OCCN5CCN(C)C(=O)[C@H]5C)cc4)CC3)nn12 | – | – | human patients | 10 mg once daily, 1.5-fold above baseline | – | time above HEXIM1 threshold | 4.56 h
O=C1Nc2cc3[nH]nc(-c4ccncc4)c3cc2CN1Cc1ccccc1 | – | RECIST v1.1 | human, relapsed or refractory advanced solid tumours | intravenous, 4.8 mg/kg | – | stable disease, best response | 67%
CCCCC1(CCCC)CN(c2ccccc2)c2cc(SC)c(OCC(=O)N[C@@H](C(=O)NCC(=O)O)c3ccccc3)cc2S(=O)(=O)C1 | – | item: 7α-hydroxy-4-cholesten-3-one | human, plasma | 10 mg once daily, day 7 | – | plasma C4 | 64.5 ng/mL
COc1cc(CNC(=O)CCCC/C=C/C(C)C)ccc1O | – | laser speckle imaging | rhesus macaques, volar forearm skin | intradermal, 100 µg | – | flare area | 117 mm²
O=S(=O)(NCCNC/C=C/c1ccc(Br)cc1)c1cccc2cnccc12 | – | embryonic development | mouse zygotes | 20 µM, 24 h post-hCG | – | two-cell embryos | 0%
O=C(OC(C(F)(F)F)C(F)(F)F)N1CCN(Cc2cccc(Oc3ccccc3)c2)CC1 | – | PET | rhesus monkey, pons | intravenous, 0.01 mg/kg, pretreatment blocking, with: [18F]T-401 | – | tracer distribution volume | 2.89 mL/cm3
C[C@H](Oc1ccc(Br)cc1-c1ccon1)C(=O)O | – | peak grip force, handgrip dynamometry | healthy human | 200 mg, SAD | – | difference from placebo | -1.05 kg

Repeated from above:
SMILES | tested on | assay | test system | setting | how to read | quantity | result
[Cl-].[Cl-].[Pt+2].[Ru+2].c1ccc(-c2nc3ccccc3nc2-c2ccccn2)nc1.c1cnc2c(c1)ccc1cccnc12.c1cnc2c(c1)ccc1cccnc12 | – | – | – | concentration not given, second substitution step, with: thiourea | – | activation enthalpy | 8.6 ± 0.478 kcal/mol
OC(CCN1CCCCC1)(c1ccccc1)C1CC2C=CC1C2 (stereo not drawn) | – | resting-state EEG | healthy elderly humans | oral, 2 mg, eyes closed, LS mean | – | EEG Beta2-power Pz-O1 | 1.1 µV²
Oc1cc(O)c2cc(O)c(-c3cc(O)c(O)c(O)c3)[o+]c2c1 | OCI-Ly1 | – | – | 0.1 µM, 120 h | – | viability | 196%
C[C@H](Oc1ccc(Br)cc1-c1ccon1)C(=O)O | – | peak grip force, handgrip dynamometry | healthy human | 200 mg, SAD | – | difference from placebo | -1.05 kg
